Results gathered from unrelated publications.
Numbered parts are unrelated; each lists some results of a single study. “And” joins repeats or separate records; there may be more than shown.

Series 1 — effect on: ligand displacement; tested at: 10 µM; quantity: inhibition
Target: Beta-1 adrenergic receptor (ADRB1, Homo sapiens, UniProt P08588)
Sequence of UniProt P08588 (whole entry, looked up): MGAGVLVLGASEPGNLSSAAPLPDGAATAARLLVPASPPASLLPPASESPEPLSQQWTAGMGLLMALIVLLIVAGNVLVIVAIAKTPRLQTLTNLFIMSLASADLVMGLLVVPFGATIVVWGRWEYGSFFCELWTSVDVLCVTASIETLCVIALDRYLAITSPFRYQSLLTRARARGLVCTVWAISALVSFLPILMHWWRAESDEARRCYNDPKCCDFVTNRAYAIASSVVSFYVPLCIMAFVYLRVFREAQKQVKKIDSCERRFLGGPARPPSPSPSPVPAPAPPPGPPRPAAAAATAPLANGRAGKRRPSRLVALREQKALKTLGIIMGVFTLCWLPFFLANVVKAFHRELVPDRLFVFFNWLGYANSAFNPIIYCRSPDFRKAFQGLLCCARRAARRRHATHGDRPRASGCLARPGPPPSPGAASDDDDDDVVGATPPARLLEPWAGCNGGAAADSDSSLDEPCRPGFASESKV
Cc1c(NC(=O)c2cc(C(N)=O)nc3cc(F)ccc23)c(C(F)(F)F)nn1Cc1ccc(C#N)cc1: 28.5%
CC1CCN(c2ccnc(NCc3cn(C)cn3)n2)CC1: 3.97%
Nc1nc(NCc2ccccc2)nc(-c2ccccc2CO)n1: 25.5%
CN1CCN(C(=O)C(C)(C)c2ccc(C(=O)Nc3cn4cc(-c5cc(C(C)(C)C)cc(C(C)(C)C)c5)ccc4n3)cc2)CC1: 28%
COc1cc(N[C@@H]2CCCC[C@]2(O)C(F)(F)F)ccc1F: -0.24%
Cc1ncc(-c2cc(Cl)ccc2F)cc1-n1c(=O)n(CC(N)=O)c2ccccc21: 25.8%
C[C@H](c1ccc(F)cc1)N(Cc1cccc(C(=O)O)c1)C(=O)c1cnc2ccccc2c1: 7.42%
Cc1ccc(-c2cnc([C@@]3(O)CC[C@H](C(=O)O)C(C)(C)C3)s2)cc1Nc1cccc(C(F)(F)F)n1: 10.3%
COc1cccc(NC(=O)c2nc3scc(CN(C)Cc4ccccc4)c3c(=O)[nH]2)c1: 30.8%
CC1=C(C#N)C(c2ccc3[nH]nc(C)c3c2)C(C#N)=C(C)N1: 2.16%
CC(=O)N1CCC(c2ccc(C(=O)NC3=NCCN3)cc2C(F)(F)F)CC1: -18%
O=C(NCCCC1CCCCC1)c1ccc(CNC(=O)c2cnn(-c3ccccc3)c2C(F)(F)F)cc1: 21.9%
CNC(=O)Nc1ccc2c(c1)CC[C@]21OC(=O)N(CC(=O)N(Cc2ccc(F)cc2)[C@@H](C)C(F)(F)F)C1=O: -5.22%
CNC(=N)NCCC[C@H](NC(=O)[C@H](CC(C)C)NC(=O)NNC(=O)[C@H](Cc1ccccc1)NC(=O)[C@H](CO)NC(=O)[C@H](CC(N)=O)NC(=O)[C@@H](Cc1ccncc1)NC(=O)[C@H](N)Cc1ccc(O)cc1)C(=O)N[C@@H](Cc1ccccc1)C(N)=O: 0.557%
NS(=O)(=O)c1cc(NC(=O)Cc2ccccc2)ccc1Oc1cccc(Cl)c1: 14.3%
O=C1NC(c2ccccn2)Sc2ccccc21 (stereo not shown): -1.52%
Cc1ccccc1Oc1cc(-n2c(=O)cc(C(F)(F)F)[nH]c2=O)c2ccccc2c1Cl: -5.52%
O=c1nc(-c2ccccn2)sc2ccccc12: -8.56%
COc1ccc2cc(OCC3(C(=O)O)CN(C(=O)c4ccc(F)cc4)C3)ccc2c1: -12.2%
NC(=O)c1ccc2nc(-c3ccc(C4(N)CCC4)cc3)c(-c3ccccc3)n2n1: 16.8%
c1ccc(N2CCN(Cc3nc4ccccc4[nH]3)CC2)nc1: 12.3%
Cc1noc([C@H]2C[C@@H](c3ccc(C(F)(F)F)cc3)CN(C(=O)N3CCS(=O)(=O)C3)C2)n1: 3.66%
O=C(N[C@H]1CCCCC/C=C\C2C[C@@]2(C(=O)O)NC(=O)[C@@H]2C[C@@H](Oc3ccncc3)CN2C1=O)OC1CCCC1 (stereo partly shown): -14.8%

Series 2 — method: RNAcompete; molecule type: RNA; matrix: in vitro; tested at: 20 nM; setting: 7-mer, probes averaged, single round; reference: mean of 7-mers; direction: higher = stronger binding; quantity: 7-mer Z-score
Target: PABPC1L2, full length, GST fusion (mouse, UniProt A0ABA7IW68)
Residues (chain): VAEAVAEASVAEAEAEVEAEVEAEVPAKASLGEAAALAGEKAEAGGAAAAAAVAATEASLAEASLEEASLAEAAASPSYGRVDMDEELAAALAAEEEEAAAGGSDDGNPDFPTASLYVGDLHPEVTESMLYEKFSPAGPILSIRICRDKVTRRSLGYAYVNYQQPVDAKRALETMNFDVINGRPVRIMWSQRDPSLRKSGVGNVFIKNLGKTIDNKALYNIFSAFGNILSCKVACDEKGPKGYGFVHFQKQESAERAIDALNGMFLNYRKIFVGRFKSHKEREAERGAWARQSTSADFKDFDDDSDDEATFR
GAGCCCC: -0.403
CGGGUCC: 0.000733
GGGCGGA: 0.784
UUGCAUG: -0.197
UUUCCCA: -0.342
UGUUGAG: -0.286
UAUAACG: -0.117
ACACCGA: 0.00979

Series 3 — method: protein-binding microarray; molecule type: double-stranded DNA, one strand shown; matrix: in vitro; tested at: 940 nM top; setting: 60-bp whole probe; together with: salmon DNA 0.4 mg/ml; reference: random background probes; direction: higher = stronger binding; quantity: fitted relative affinity; constant ends, left off below: GCCTAGCAC … GTCTTGATTCGCTTGACGCTGCTG
Target: Interferon regulatory factor 5, full length, phosphomimetic (IRF5, Homo sapiens, UniProt Q13568-2, residues 1-514, S451D/S453D/S456D/S462D)
TTTTGAAGTTTGGCGTTGACGTGCTAG: -0.132 z-score
TTTGGACTGCTACTGCTTTAGTGCTAG: -0.545 z-score
TTTTCAGCATCGCTCAGCACGTGCTAG: 0.383 z-score
TCAGCTTTCCTTTGCTTACTGTGCTAG: 0.125 z-score
GACGGACTGCTACTGCTTACGTGCTAG: -0.271 z-score
TTAGGTATCGGTCTTGGTTAGTGCTAG: 8.94 z-score
GACGATATCGGGACTGTAGACGTGCTA: -0.13 z-score
TCAGCTTTTTAGATCGTACTGTGCTAG: 0.358 z-score

Series 4 — organism: Sarcocystis neurona; effect on: parasite growth; tested at: 10 µM; setting: secondary screen; quantity: inhibition
CCN1CCC[C@H]1CNC(=O)c1c(O)c(Cl)cc(Cl)c1OC: -27.6%
CC1=C(/C=C/C(C)=C/C=C/C(C)=C\C(=O)O)C(C)(C)CCC1: -52.7%
CN(CCCN1c2ccccc2CCc2ccccc21)CC(=O)c1ccc(Cl)cc1: 3.6%

Other studies, line by line
O=C1c2cccc3c2[C@H](CCC3)CN1[C@@H]1CN2CCC1CC2 — nuclei count (mouse MPNST tumor cells; high-content nuclear imaging, refers to: cell number; 10 µM, 12 h, mean of 2 replicates; reference: plate mean, higher = more cells): 0.124 z-score and 2.51 z-score
Nc1ncnc2c1ncn2[C@@H]1O[C@H](CO)[C@@H](O)[C@@H]1O — viability (A-375; 100 µM, 36 h): 57.2%
CSc1c(C(C)=O)c(=O)nc2scc(C)n12 — remaining compound (human, microsomes or S9; 2 µM, 0.5 h): 45.3%
CC(C)n1nc(-c2cc3cc(O)ccc3[nH]2)c2c(N)ncnc21 — nuclei count (mouse MPNST tumor cells; high-content nuclear imaging, refers to: cell number; 10 µM, 12 h, mean of 2 replicates; reference: plate mean, higher = more cells): -2.56 z-score
